Measurements pooled from the literature.
Each numbered part is a random draw from the data of one study; scales do not carry over between parts. Several values in a cell are separate wells, animals, samples, runs or records.

Series 1
SMILES: CCN1/C(=C/C=C2\CCCC(/C=C/C3=[N+](CC)c4ccccc4C3(C)C)=C2NCCCCCCCCN2CCC(Nc3nc4ccccc4n3Cc3ccc(F)cc3)CC2)C(C)(C)c2ccccc21
Cell line: U-87 MG
Concentration: concentration not given
Relative to: DMSO
Endpoint: log2 fold change
item: G0S2 mRNA: -2.14
item: MAP10 mRNA: -1.07
item: C18orf25 mRNA: 0.801
item: PLEKHG3 mRNA: -2.96
item: CCDC121 mRNA: -1.4
item: SUMO3 mRNA: -0.82
item: YOD1 mRNA: 1.16
item: KDM7A mRNA: 2.14
item: GRB10 mRNA: 1.11
item: CNN1 mRNA: -1.8
item: ETV3 mRNA: 0.979
item: DBNDD1 mRNA: -1.91
item: TRAPPC1 mRNA: -1
item: C8orf88 mRNA: 1.28
item: FAM72C mRNA: -2.12
item: STIL mRNA: -1.79

Series 2
Structure (SMILES): CN1C(=O)C(O)(C(=O)O)Oc2cc(F)ccc21 (centres unmarked)
Endpoint: inhibition
Arabidopsis thaliana; hypocotyl length; Col-0, seedlings; 6.25 µg/mL: 13.1%
Triticum aestivum; fresh weight; soil surface spray, 150 g ai/ha, 21 days, pre-emergence crop safety: 9.2% and 7% and 8%
Arabidopsis thaliana; hypocotyl length; Col-0; 3.125 µg/mL, 7 days, seed germination, dark: 7.4%
Arabidopsis thaliana; root length; Col-0; 6.25 µg/mL, 7 days, seed germination, dark: 11.9%
Arabidopsis thaliana; root length; Col-0; 100 µg/mL, 7 days, seed germination, dark: 63.2%
Arabidopsis thaliana; hypocotyl length; Col-0; 50.0 µg/mL, 7 days, seed germination, dark: 28.6%
Echinochloa crus-galli; fresh weight; 150 g ai/ha, post-emergence treatment: 52.3% and 49.8% and 56.4%
Arabidopsis thaliana; hypocotyl length; Col-0, seedlings; 50 µg/mL: 28.6%
Arabidopsis thaliana; hypocotyl length; Col-0, seedlings; 3.125 µg/mL: 7.37%
Arabidopsis thaliana; root length; Col-0, seedlings; 12.5 µg/mL: 22.7%
Arabidopsis thaliana; root length; Col-0, seedlings; 12.5 µg/mL; relative to: water control: 22.7%
Alopecurus aequalis; fresh weight; 150 g ai/ha, pre-emergence treatment: 67.7% and 62.8% and 65.1%
Arabidopsis thaliana; root length; Col-0; 25.0 µg/mL, 7 days, seed germination, dark: 29.5%
Eclipta prostrata; fresh weight; 150 g ai/ha, post-emergence treatment: 48% and 43.8% and 43.3%

Series 3
Structure (SMILES): Cc1ccc(O)c(C)c1-c1cnc2[nH]c(-c3cnc(N4CCC5(CC4)CC(N4CCN(c6ccc(NC7CCC(=O)NC7=O)cc6F)CC4)CO5)nc3)cc2c1C#N (centres unmarked)
Endpoint: inhibition
PKMYT1: Membrane-associated tyrosine- and threonine-specific cdc2-inhibitory kinase (PKMYT1, Homo sapiens, UniProt Q99640)
Sequence of UniProt Q99640 (whole entry, looked up): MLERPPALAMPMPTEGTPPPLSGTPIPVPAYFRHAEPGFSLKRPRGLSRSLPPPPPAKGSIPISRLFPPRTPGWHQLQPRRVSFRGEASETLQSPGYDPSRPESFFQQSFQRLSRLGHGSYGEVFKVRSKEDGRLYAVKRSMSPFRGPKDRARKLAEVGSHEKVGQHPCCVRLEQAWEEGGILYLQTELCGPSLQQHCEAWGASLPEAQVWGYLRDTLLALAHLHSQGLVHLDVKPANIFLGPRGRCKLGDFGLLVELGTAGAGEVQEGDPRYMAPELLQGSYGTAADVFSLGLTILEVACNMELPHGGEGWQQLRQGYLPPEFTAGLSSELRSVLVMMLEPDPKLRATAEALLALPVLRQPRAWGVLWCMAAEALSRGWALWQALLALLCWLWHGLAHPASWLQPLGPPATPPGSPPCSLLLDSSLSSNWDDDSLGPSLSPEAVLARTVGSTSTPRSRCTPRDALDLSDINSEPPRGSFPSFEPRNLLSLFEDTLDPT
MDA-MB-157; item: CDK1 phospho-Thr14; 0.0169 nM: -58%
PKMYT1; 0.3333 µM: 100%
MDA-MB-157; item: CDK1 phospho-Thr14; 1000 nM: 62%
HCC1599; item: CDK1 phospho-Thr14; 0.0169 nM: -5.1%
PKMYT1; 0.01235 µM: 82.2%
HuCCT-1; item: CDK1 phospho-Thr14; 111.11 nM: 64.6%
PKMYT1; 0.00137 µM: 21.7%
PKMYT1; 0.00046 µM: 4.04%
HCC1599; item: CDK1 phospho-Thr14; 37.04 nM: 17%
PKMYT1; 0.03704 µM: 94%
PKMYT1; 5.1e-05 µM: -1.93%
PKMYT1; cell-free assay, inhibitor, TR-FRET; 152 pM: 6.76%
HuCCT-1; item: CDK1 phospho-Thr14; 4.12 nM: 23.5%
MDA-MB-157; item: CDK1 phospho-Thr14; 1.37 nM: -24.3%
HuCCT-1; item: CDK1 phospho-Thr14; 1.37 nM: 16.1%

Series 4
Compound: Cc1ncsc1-c1ccc(C2(NC(=O)C3CC(O)CN3C(=O)C(NC(=O)c3ccc(COc4c(-c5c(C)c(F)cc6[nH]ncc56)c(C5CC5)cc5c(N6CC7CC6CN7)nc(OC6CCOCC6)nc45)cc3)C(C)C)CC2)cc1 (centres unmarked)
Cell line: AsPC-1
Method: in-cell ELISA
Endpoint: phospho-ERK1/2 level
3 nM, per-experiment values: 88.7% and 99.5% and 97.3%
30 nM, per-experiment values: 88.6% and 97.7% and 87%
10 nM, individual replicates: 92% and 99.1% and 88.4% and 95.2% and 87.4%
300 pM, per-experiment values: 92.5% and 99.4% and 105%
1 nM, individual replicates: 85.7% and 102% and 97.3% and 99.4% and 105% and 91%
10 µM, per-experiment values: 10.2% and 11.6% and 7.41%
100 nM, per-experiment values: 74% and 58% and 69.8%
300 nM, individual replicates: 56.5% and 20.3% and 33% and 46.9% and 22.9% and 21.2%
